Assay results gathered from unrelated publications.
Numbered parts are unrelated; each lists some results of a single study. Substitutions count along the parent as printed.

Set 1
Target: CRIPT, C-terminal peptide
Technique: DHFR complementation, deep sequencing
Matrix: yeast
Setting: single substitutions, model-inferred values
Reference: wild type
Direction: higher = weaker binding
Endpoint: binding free energy change
Starting sequence: ERBIN, PDZ domain 1 (human); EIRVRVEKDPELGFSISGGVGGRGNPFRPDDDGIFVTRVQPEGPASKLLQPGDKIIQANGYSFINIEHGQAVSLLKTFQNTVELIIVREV; partner TKNYKQTSV
Change = S17C; value = -0.0145 kcal/mol
Change = E83Y; value = 0.221 kcal/mol
Change = V20E; value = -0.11 kcal/mol
Change = N80C; value = 0.0812 kcal/mol
Change = V36F; value = 0.997 kcal/mol
Change = N80M; value = 0.111 kcal/mol
Change = N25K; value = 1.1 kcal/mol
Change = L49P; value = 0.891 kcal/mol
Change = E42V; value = 0.219 kcal/mol
Change = Q57Y; value = 0.121 kcal/mol
Change = S15V; value = 0.0631 kcal/mol
Change = F35I; value = 0.783 kcal/mol
Change = T81Y; value = 0.295 kcal/mol
Change = P51I; value = 0.268 kcal/mol
Change = E1R; value = 0.0689 kcal/mol
Change = D9R; value = -0.396 kcal/mol
Change = G24W; value = 1.91 kcal/mol
Change = G43K; value = 0.384 kcal/mol
Change = K8W; value = 1.61 kcal/mol
Change = G21P; value = 0.293 kcal/mol
Change = S46H; value = 0.00646 kcal/mol
Change = V20K; value = -0.152 kcal/mol
Change = A45H; value = 1.31 kcal/mol

Set 2
Target: CCNA2, cyclin fold, Cln2 fusion (human)
Technique: yeast growth competition, sequencing
Matrix: yeast
Setting: strong parent motif
Reference: not given
Direction: higher = stronger binding
Endpoint: normalised enrichment score
Starting sequence: SAMHD1 docking peptide (human); ASKSRVQLFKDDP; partner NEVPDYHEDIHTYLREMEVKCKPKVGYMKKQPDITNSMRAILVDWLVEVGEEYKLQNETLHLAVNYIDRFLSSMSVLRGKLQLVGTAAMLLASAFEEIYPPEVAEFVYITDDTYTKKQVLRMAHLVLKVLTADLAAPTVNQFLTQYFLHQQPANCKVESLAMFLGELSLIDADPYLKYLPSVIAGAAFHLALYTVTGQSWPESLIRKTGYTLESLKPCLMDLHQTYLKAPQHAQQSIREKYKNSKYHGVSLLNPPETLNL
Change = ASKPRVQLFKDDP [S4P]; value = 1.97
Change = ASKSRVQLFKTDP [D11T]; value = 2.14
Change = ASKSRVQLFKDYP [D12Y]; value = 3.59
Change = ASKSRVQLFDDDP [K10D]; value = 1.13
Change = ASKSRVQLFKDPP [D12P]; value = 2.81
Change = ASKSRVQLIKDDP [F9I]; value = 0.576
Change = ASKSRVWLFKDDP [Q7W]; value = 0.53
Change = APKSRVQLFKDDP [S2P]; value = 3.83
Change = AGKSRVQLFKDDP [S2G]; value = 2.95
Change = ASASRVQLFKDDP [K3A]; value = 1.31
Change = ASKSRVQLFKMDP [D11M]; value = 1.89
Change = ASKFRVQLFKDDP [S4F]; value = 4.54
Change = ASKSRVQLFKDAP [D12A]; value = 2.82
Change = ASKSRNQLFKDDP [V6N]; value = 0.259
Change = ASKSRVQLFKDIP [D12I]; value = 2.92
Change = ASKTRVQLFKDDP [S4T]; value = 3.6
Change = ASKSRVALFKDDP [Q7A]; value = 1.56
Change = ASKYRVQLFKDDP [S4Y]; value = 3.19

Set 3
Target: Centromere-binding protein 1, full length, N-terminal tag (CBF1, Saccharomyces cerevisiae, UniProt P17106, residues 1-351)
UniProt P17106, sequence (whole entry, looked up): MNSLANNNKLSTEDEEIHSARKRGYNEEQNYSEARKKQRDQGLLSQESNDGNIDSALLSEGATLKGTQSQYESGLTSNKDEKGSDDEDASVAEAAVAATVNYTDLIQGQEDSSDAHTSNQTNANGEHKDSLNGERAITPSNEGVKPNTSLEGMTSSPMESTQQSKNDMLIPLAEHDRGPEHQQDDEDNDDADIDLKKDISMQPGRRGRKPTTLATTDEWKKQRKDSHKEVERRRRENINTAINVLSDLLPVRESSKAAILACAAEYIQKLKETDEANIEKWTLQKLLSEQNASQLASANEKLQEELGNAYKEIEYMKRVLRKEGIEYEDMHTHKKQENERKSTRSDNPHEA
Technique: protein-binding microarray
Molecule type: double-stranded DNA, one strand shown
Matrix: in vitro
Concentration: 0.8 µM
Setting: whole 60-bp probe, no competitor
Direction: higher = stronger binding
Endpoint: fluorescence intensity
Constant ends, left off below: … GTCTTGATTCGCTTGACGCTGCTG
Sequence = GAAGTGTTATTGTCACCGCTGATGGTTGTGATGTAG; value = 544 a.u.
Sequence = CTATGCCCAGATGGTTCTGATGTTCTTTATCTCTTC; value = 506 a.u.
Sequence = CTAATACCCGGAAGTCGCGTGATCTTTTTTTTTTTC; value = 3580 a.u.
Sequence = CTAGCTAGTATACACCACGCATATGTCTGTCAATTC; value = 512 a.u.
Sequence = GAACATGCTGAAGGGAACGTGCGAGAAAAAAATTAG; value = 687 a.u.
Sequence = GAAGCGGACCAAGATCACGTACCATGTGCAGAATAG; value = 1250 a.u.
Sequence = CTACATCGGTATTGTGGTGACATTTATTGAATTTTC; value = 555 a.u.
Sequence = CTAATCAGTGGTAGCAACGTGGTAGCACGGAAGTTC; value = 576 a.u.
Sequence = CCTAACTACTATAATGGCGTGTGATAGCTTCGTACA; value = 581 a.u.
Sequence = CTAGTAAATAACACACACGTGCTTACCCTACCATTC; value = 6640 a.u.
Sequence = CTAATTAATGTGCGCCACGTTTGACGTTTAAGTTTC; value = 530 a.u.
Sequence = GAATCATTTCTATCCCACTCGTGAGTAATGGCTTAG; value = 523 a.u.
Sequence = GAAGATTGCTCGAATCACGTTTTTCTTGTTTTTTAG; value = 1860 a.u.
Sequence = CTAGCACCTCCTAACATCACCATACTACGTACATTC; value = 573 a.u.
Sequence = CTAAGGATTTTTTAAATCGTGACATGTGCTTTATTC; value = 2100 a.u.
Sequence = CTAGATAGTTGTGCCTGTACCACGTGAGAAGGCTTC; value = 7050 a.u.

Set 4
Target: CREB5, bZIP domain (human)
Technique: DHFR protein complementation
Matrix: yeast
Setting: single substitutions, most at no-binding floor
Reference: wild-type JUN-FOS pair
Direction: higher = stronger binding
Endpoint: binding fitness
Starting sequence: JUN, bZIP domain (human); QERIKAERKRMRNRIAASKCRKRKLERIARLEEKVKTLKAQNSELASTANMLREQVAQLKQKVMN; partner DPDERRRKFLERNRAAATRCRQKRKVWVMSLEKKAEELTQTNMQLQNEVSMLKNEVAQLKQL
Change = L45G; value = -1.43 natural log
Change = A46G; value = -0.772 natural log
Change = E44L; value = -0.475 natural log
Change = Q41M; value = -0.345 natural log
Change = I28Y; value = -0.383 natural log
Change = Q41L; value = -0.46 natural log
Change = K34V; value = -0.404 natural log
Change = A29W; value = -0.379 natural log
Change = L38W; value = -1.45 natural log
Change = T48A; value = -0.361 natural log
Change = V35D; value = -1.4 natural log
Change = M51Q; value = -0.211 natural log
Change = E44N; value = -0.56 natural log
Change = Q55M; value = -0.499 natural log
Change = R53I; value = -1.08 natural log
Change = I28Q; value = -0.267 natural log
Change = S47Y; value = -0.406 natural log
Change = S47P; value = -1.38 natural log
Change = I28A; value = -0.409 natural log
Change = T37M; value = 0.229 natural log
Change = Q41W; value = -1.35 natural log
Change = A57Y; value = -0.473 natural log
Change = Q55P; value = -1.36 natural log
Change = K34Q; value = -0.426 natural log
Change = E54H; value = -0.53 natural log

Set 5
Target: RING finger protein unkempt homolog, zinc fingers 1-6, GST-SBP tag (UNK, Homo sapiens, UniProt Q9C0B0, residues 30-357)
Technique: RNA Bind-n-Seq
Molecule type: RNA
Matrix: in vitro
Concentration: not given
Setting: RNA with constant flanks, human and mouse sites, ends assumed
Reference: input RNA pool
Direction: higher = stronger binding
Endpoint: bound/input enrichment
Constant ends, left off below: GGGAGUUCUACAGUCCGACGAUC … CAACAGAGGAUUGAGCAUCA
Residues (chain): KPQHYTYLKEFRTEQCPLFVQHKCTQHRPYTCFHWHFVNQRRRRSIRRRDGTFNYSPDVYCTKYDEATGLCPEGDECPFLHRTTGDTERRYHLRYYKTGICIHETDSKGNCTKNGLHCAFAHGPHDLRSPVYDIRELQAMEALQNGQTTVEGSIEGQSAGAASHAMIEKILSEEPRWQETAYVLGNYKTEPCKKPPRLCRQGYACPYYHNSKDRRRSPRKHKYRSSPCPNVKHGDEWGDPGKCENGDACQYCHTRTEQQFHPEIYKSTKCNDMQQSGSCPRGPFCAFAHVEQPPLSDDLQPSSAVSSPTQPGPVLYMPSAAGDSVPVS
Sequence = AGCAUUUCUUUUCUUUUAGGGAUGUCUGAAAGUCACAUCCAGUUACAUUACUGUGUUCUUUCUAAUGAAAAGUAAAGGUUUUAUAUAGAGAAACUUGAGUAAUUUUUACAUUUCUAAGAC; value = 0.219 ratio
Sequence = ACAGCCAUCUGGAAUUUACUAGUUACAACGGGUCAAGAGGUUAAAUAUGAUUUGUUGGUAAGUAAUGCAAUUCAAUUUCUGGCUUCAGUUUGUGAGAGACCUCAUUAUAAGAAUCUAUUU; value = 0.228 ratio
Sequence = GCUCAUGCUUAUCACAGUCGCUGUGUGGACCCCUGGCUCACUCAGACCCGCAAGACCUGCCCCAUCUGCAAACAGCCUGUACAUCGGGGUCCUGGCGAUGAGGAGCAGGAAGAAGAAACU; value = 0.0578 ratio
Sequence = UCUUAAGUAGCCUUAAACAGAACAGCGAAAAUUUAAAAUUGACAAAAUAUUUUUAAGACUUCAAAAUAGUAAAUAAUUUUUAACUAUUAUAAUUGGCCUCAAACUAACAAAUUUAAAUCU; value = 16.8 ratio
Sequence = GGUCCGCCAAUAGAAAAUGGAUUCUAUUAUGACAUGUACCUCGAAGAAGGGGGUGUGUCUAGCAAUGAUUUCUCUUCUCUGGAGGCUUUGUGUAAGAAAAUCAUUAAAGAAAAACAAGCU; value = 0.53 ratio
Sequence = UCCUGGUUUGAUUAUUGUGAUCAGCUCAUUAAGGAAGCCCAAAAGACUGCUGCUGUUGCUCUUGCCAAAGCUGUUCAUGAAAGAUUUUUCAUUGGUGUUAUGGAACCUCAAUUAAUGCAA; value = 0.265 ratio
Sequence = CUUUUGCAGUUUGACACUAAGAUAACUUCUGUGUGCAUUUUUCUAUGCUUUUUUAAAAACUAGUUUCAUUUCAUUUUCAUGAGAUGUUUGGUUUAUAAGAUCUGAGGAUGGUUAUAAAUA; value = 0.317 ratio
Sequence = CCUCUUUUAAAGCAGGUUGUGUACAACAUUCAGUACACUGAAGGCAUAAACCUUCCACUCUUGAACAAAGCAGCUGCUUUUUAAAAGCGAGAAAAAGGAAAACGGGGCACAGGCCAUUCG; value = 0.259 ratio

Repeated from above (set 1):
Change = E83Y; value = 0.221 kcal/mol
Change = V20E; value = -0.11 kcal/mol
Change = N80C; value = 0.0812 kcal/mol
Change = V36F; value = 0.997 kcal/mol
Change = N80M; value = 0.111 kcal/mol
Change = N25K; value = 1.1 kcal/mol
Change = L49P; value = 0.891 kcal/mol
Change = E42V; value = 0.219 kcal/mol
Change = Q57Y; value = 0.121 kcal/mol
Change = S15V; value = 0.0631 kcal/mol
Change = F35I; value = 0.783 kcal/mol
Change = T81Y; value = 0.295 kcal/mol
Change = P51I; value = 0.268 kcal/mol
